Results of several laboratories.
Protocols differ between the studies behind these lines. Several values in a cell are separate wells, animals, samples, runs or records. ± marks the error that the study gave.

| Structure (SMILES) | cell line | test | test system | conditions | how to read | endpoint | value |
| --- | --- | --- | --- | --- | --- | --- | --- |
| Cc1c(C(=O)O)ccc2c3n(nc12)[C@@H]1[C@H](C3)N(CC2CC2)[C@@]2(C(=O)Nc3cc(Cl)ccc32)[C@H]1c1cccc(Cl)c1F | SNU-719 (MDM2 non-amplified) | cell proliferation, alamarBlue |  | 120 h |  | GI50 | 0.01 µM |
| COc1cc2ncnc(Nc3ccc(Oc4ccccc4)c(C)c3C)c2cc1OC.Cl | SW1417 (BRAF V600E) | cell viability |  | concentration not given, 72 h, with: trametinib | direction not given | Bliss synergy score | 48.3% |
| CCOc1cc([C@@H](CS(C)(=O)=O)N2C(=O)c3cccc(NC(C)=O)c3C2=O)ccc1OC | PBMC | MSD |  | 0.001 µM, unit not given, with: PGE2 | relative to: DMSO | cAMP level difference | -1.82 |
| C=CC1=C(C)c2cc3[n-]c(cc4nc(cc5[n-]c(cc1n2)c(C)c5C=C)C(C)=C4CCC(=O)O)c(CCC(=O)O)c3C.[Zn+2] | SH-SY5Y | RNA-seq, measured: FOSL1 mRNA |  | 5 µM, 5 h | relative to: untreated cells | fold change | 1.97 |
| CC/C(=C(\c1ccc(O)cc1)c1ccc(OCCN(C)C)cc1)c1ccccc1 | MCF7 3xERE-luc, steroid-deprived | ERE luciferase reporter, agonist |  |  | relative to: vehicle | Emax | 1.1% |
| CCCN1CCN(c2ccc3[nH]c(-c4ccc5[nH]c(-c6cc(OC)c(OC)c(OC)c6)nc5c4)nc3c2)CC1 | SF-539 | SRB |  | 10 µM, 48 h |  | growth percent | 59.6% |
| O=C(/C=C/C=C/C=C/C1CCCCC1)NC1=C[C@@](O)(/C=C/C=C/C=C/C(=O)NC2=C(O)CCC2=O)[C@@H]2O[C@@H]2C1=O | IGR-37 | cell growth, CellTiter-Glo |  | 78 h |  | GI50 | 16.9 µM |
| COc1cc(N2CCC(N3CCN(C)CC3)CC2)ccc1Nc1ncc(Cl)c(Nc2ccccc2P(C)(C)=O)n1 | Ba/F3 EML4-ALK v3 | cell viability |  |  |  | Emax | 100% |
| [Cl-].[Cl-].[Os+2].c1cnc2c(c1)ccc1cccnc12.c1cnc2c(c1)ccc1cccnc12.c1cnc2c(c1)ccc1cccnc12 | SK-MEL-28 | cell growth, SRB |  | dark, normoxia |  | GI50 | 125 µM |
| O=C(CCc1ccc(O)cc1)c1c(O)cc(O)cc1O | Caco-2 monolayers |  |  | 100 µg/mL, 90 min onward | relative to: 0 min value | TEER | 120% |
| O=c1cc(-c2ccc(O)cc2)oc2c([C@@H]3OC[C@H](O)[C@H](O)[C@H]3O)c(O)c([C@@H]3O[C@H](CO)[C@@H](O)[C@H](O)[C@H]3O)c(O)c12 | AC16 | CCK-8 |  | 40 to 80 ng/mL, 24 h |  | viability | increased |
| CCCCN1C[C@H](O)[C@@H](O)[C@@H](O)[C@H]1CO | sample BB patient fibroblasts | Gb3 level lowering, LC-MS/MS, measured: Gb3 d18:1/20:0 |  | 216 h |  | IC50 | 13.7 µM |
| COCCOCCOCc1n(Cc2ccc3ccccc3n2)c2ccccc2[n+]1Cc1ccc2ccccc2n1 | NSCLC cell lines | NCI60 one-dose screen |  | 10 µM |  | mean growth percentage | 24.7% |
| C=C[C@@]1(C)CC(=O)[C@]2(O)[C@@]3(C)[C@@H](O)CCC(C)(C)[C@@H]3[C@H](O)[C@H](OC(C)=O)[C@@]2(C)O1 | PBMC | MSD |  | 10 µM, unit not given, with: PGE2 | relative to: DMSO | cAMP level difference | -3.84 |
| C=CC(=O)N1CCC([C@@H]2CCNc3c(C(N)=O)c(-c4ccc(Oc5ccccc5)cc4)nn32)CC1 | TMD8 wild-type | calcium flux, FLIPR |  | 1 h preincubation, with: anti-IgM |  | maximum inhibition | 89.4% |
| Nc1ncnc2c1ncn2[C@@H]1O[C@H](CO)[C@@H](O)[C@H]1O | activated human T cells | measured: inosine |  | 30 µM | relative to: DMSO | log2 fold change | 1.4 and 1.6 and 1.8 |
| Clc1nc(NCc2ccco2)c2[nH]cnc2n1 | FD iPSC-derived cardiomyocytes | alternative splicing, RNA-seq, measured: DROSHA exon chr5:31521122-31521215 |  | unit not given | relative to: DMSO minus compound | ΔPSI | 0.242 |
| c1ccc2cc(Cn3c[n+](Cc4ccc5ccccc5c4)c4ccccc43)ccc2c1 | NSCLC cell lines | NCI60 one-dose screen |  | 10 µM |  | mean growth percentage | 1.29% |
| CCOC(=O)C1CCN(C(=O)C(C)(C)NC(=O)Nc2ccc(Cl)cc2Cl)CC1 | Drosophila S3 | RNA-Seq |  | 1 µM, 4 h, with: oleic acid 200 µM | relative to: DMSO with oleic acid | number of differentially expressed genes | 284 |
| CC#CC(=O)N1CCC[C@H]1c1nc(-c2ccc(C(=O)Nc3ccccn3)cc2)c2c(N)nccn12 | TMD8 wild-type | calcium flux, FLIPR |  | 2 h preincubation, with: anti-IgM |  | maximum inhibition | 84.6% |
| Nc1cccc2c1C(=O)N(C1CCC(=O)NC1=O)C2=O (stereo not shown) | bone marrow CD138+ myeloma cells | XTT |  | 3 µM, phenol red-free RPMI |  | viability | 4% |
| C[C@H](Nc1ccc2c(c1)OCCn1cc(N3C(=O)OC[C@H]3C(F)F)nc1-2)C(N)=O | HuH-28 | CellTiter-Glo GR metrics |  | 120 h |  | GR Hill coefficient | 0.157 |
| Cn1cc(-c2ccc(-c3cncc(Cl)c3N3CCC4(CCNC4=O)CC3)cc2)cn1 | COLO 205 | gene expression, microarray, measured: CASP1 mRNA |  | concentration not given, 6 h | relative to: untreated cells | log2 fold change | 2.28 |
| Cc1cc(Nc2ncc(Cl)c(Nc3ccccc3S(=O)(=O)C(C)C)n2)c(OC(C)C)cc1C1CCNCC1 | CLB-GE | phosphoproteomics LC-MS/MS, measured: CCT2 phosphorylation |  | 200 nM, 60 min | relative to: untreated | log2 fold change | -3.02 |
| Cn1cc(Nc2nccc(-c3ccc4c(c3)CN(C3COC3)CC[C@H]4NC(=O)c3cn(C(C)(C)C)nn3)n2)cn1 | mouse splenic B cells | measured: Neuregulin signalling |  | 30 mg/kg, IgD-activated in vivo | relative to: vehicle, direction not given | pathway activation z-score | 0.905 |

| Structure (SMILES) | cell line | test | test system | conditions | how to read | endpoint | value |
| --- | --- | --- | --- | --- | --- | --- | --- |
| Cc1c(C)c2c(c(C)c1O)CCC(C)(COc1ccc(CC3SC(=O)NC3=O)cc1)O2 (stereo not shown) | hepatocytes, iPSC-derived, line W3 | cell viability, RealTime-Glo MT |  | 48 h, differentiation day 23 |  | IC50 | 95 µM |
| CC/C(=N\NC(=O)C(C)Nc1ccccc1)c1ccc(O)c(C)c1O (stereo not shown) | SK-OV-3 | Western blot |  | 10 µM, 1 h, 3D gellan gum culture, unit not given | relative to: DMSO | TAZ band intensity | 0.28 ± 0.02 |
| Cc1n(Cc2ccc3ccccc3n2)cc[n+]1Cc1ccc2ccccc2c1.[Br-] | NSCLC cell lines |  |  | lower end of range |  | TGI | ≥ 671 nM |
| CCn1cc(-c2cc(Cn3ccoc3=N)cc3c2CCN([C@@H](C)c2cc(OC)ccn2)C3=O)c(C(F)(F)F)n1 | SNU-398 | cell growth, inhibitor |  | 120 h |  | EC50 | 289 nM |
| Cc1ccc(CNC(=O)Cn2cc(CSc3nc4ccccc4[nH]3)nn2)cc1 | Caco-2 | MTT |  | 7.81 ppm |  | viability | 50.7% |
| CCCc1n(Cc2ccc3ccccc3c2)c2ccccc2[n+]1Cc1ccc2ccccc2c1 | NSCLC cell lines | NCI60 one-dose screen |  | 10 µM |  | mean growth percentage | -30.7% |
| CC(C)NCC(O)c1ccc(O)c(O)c1 (stereo not shown) | mouse ventricular cardiomyocytes |  |  | dose not given, 0.163 s |  | sarcomere length | 1.59 µm |
| COc1ccc([C@H]2N(c3ccc(Cl)c(Cl)c3)C(=O)[C@@H]3CCCN32)c(OC)c1OC (racemic) | PC-12, differentiated |  |  | 50 µM, 4 days |  | mutant huntingtin-induced cytotoxicity | decreased |
| CC(C)(C)c1cc(NC(=O)Cc2ccc(Nc3ncnc4sccc34)cc2)no1 | LC-2/ad | resazurin |  | concentration not given |  | growth inhibition | decreased |
| CCCCc1nc(Cl)c(CO)n1Cc1ccc(-c2ccccc2-c2nn[nH]n2)cc1 | human PBMC | RNA-seq, measured: FN1 mRNA |  | 10 µg/mL, 24 h | relative to: untreated control | log2 fold change | -1.84 |
| CCCCCCOC(=O)[C@]1(O)C[C@@H]2O[C@@]1(C)n1c3ccccc3c3c4c(c5c6ccccc6n2c5c31)C(=O)NC4 | SK-OV-3 | ATP |  | 10 µM, 4 days, 3D U-bottom low-attachment | relative to: untreated | relative cell number | 84.7% |
| COc1cccc2c1C(=O)c1c(O)c3c(c(O)c1C2=O)C[C@@](O)(C(=O)CO)C[C@@H]3O[C@H]1C[C@H](N)[C@H](O)[C@H](C)O1 | HepG2 | measured: glutathione |  | 6 h, representative mode |  | point of departure | 0.00437 µM |
| CSc1cc(Oc2ccnc3[nH]c(=O)cnc23)ccc1NC(=O)Nc1cc(C(C)(C)C)nn1-c1ccccc1 | patient-derived cell line (sample C) | reverse phase protein array, measured: Akt pSer473 | human | 1 µM, 4 h | relative to: DMSO | phospho/total Akt ratio | 0.27 |
| COc1ccc(C2CC(c3ccccc3Cl)Nc3nc(N)nn32)cc1OC (stereo not shown) | MEF with TRE-FLAG-LMNB1 | LMNB1 level, high-content screening |  | 250 µM |  | maximum inhibition | 22% |
| CC(C)C(=O)Nc1n[nH]c2cc(-c3cccc(NS(=O)(=O)C4CC4)c3)ccc12 | HEK293T | flow cytometry, measured: surface LRP6 |  | concentration not given, 8 h, with: WNT3A |  | LRP6-positive cells | 21% |
| COc1ccc(-n2nc(C(C)=O)s/c2=N\N=C(/C)c2ccc(NC(=O)c3ccc(C)cc3)cc2)cc1 | HepG2 |  |  | 5 µM |  | viability | 4.22% |
| O=C(Nc1nnc2n3c(=S)[nH][nH]c3nc(-c3ccc(Cl)cc3)c1-2)c1ccccc1 | SF-539 | SRB |  | 10 µM, NCI60 single-dose screen | relative to: untreated | cell growth | 85.4% |
| OCc1n(Cc2ccc3ccccc3c2)cc[n+]1Cc1ccc2ccccc2c1 | NSCLC cell lines |  |  | 10 µM, average over cell lines | relative to: untreated | growth | 60.7% |
| COc1cnc2cccc(N3CCc4c(cc(Cn5ccnc5C)cc4-c4cn(C)nc4C(F)(F)F)C3=O)c2c1 | ARH-77 | cell growth, inhibitor |  | 120 h |  | EC50 | 20500 nM |
| CC/C(=N\NC(=O)NCc1cccc(O)c1)c1ccc(O)c(C)c1O | SK-OV-3 | gene expression, microarray, measured: LRRN4 |  | 10 µM, 24 h | relative to: DMSO | log ratio | 3.26 |
| Cn1c(Nc2nc3ccc(C(F)(F)F)cc3s2)nc2cc(C(=O)NCCOCCO)ccc21 | SH-SY5Y | RNA-seq, measured: TFPI2 mRNA |  | 5 µM, 5 h | relative to: untreated cells | fold change | 2.57 |
| C=CC(=O)Nc1cc(Nc2nccc(Nc3cc(Cl)c(F)cc3C(C)(C)O)n2)c(OC)cc1N1CC[C@@H](N(C)C)C1 | NCI-H2073 EGFR ASV knock-in | cell proliferation, CellTiter-Glo |  |  | relative to: knock-in over parental NCI-H2073 | selectivity ratio | 1 |
| CC(C)(C)C(=O)N1N=CC[C@H]1c1ccccc1 | L929 | ATP viability |  | concentration not given, with: poly(I:C) and zVAD |  | necroptosis | no effect |
| CCn1cc(-c2cc(Cn3ccnc3)cc3c2CCN([C@H](c2cc(OC)ccn2)C2CC2)C3=O)c(C(F)(F)F)n1 | LS-513 | cell growth, inhibitor |  | 120 h |  | EC50 | 1140 nM |

A few entries again:
| Structure (SMILES) | cell line | test | test system | conditions | how to read | endpoint | value |
| --- | --- | --- | --- | --- | --- | --- | --- |
| Cc1c(C(=O)O)ccc2c3n(nc12)[C@@H]1[C@H](C3)N(CC2CC2)[C@@]2(C(=O)Nc3cc(Cl)ccc32)[C@H]1c1cccc(Cl)c1F | SNU-719 (MDM2 non-amplified) | cell proliferation, alamarBlue |  | 120 h |  | GI50 | 0.01 µM |
| COc1cc2ncnc(Nc3ccc(Oc4ccccc4)c(C)c3C)c2cc1OC.Cl | SW1417 (BRAF V600E) | cell viability |  | concentration not given, 72 h, with: trametinib | direction not given | Bliss synergy score | 48.3% |
| CCOc1cc([C@@H](CS(C)(=O)=O)N2C(=O)c3cccc(NC(C)=O)c3C2=O)ccc1OC | PBMC | MSD |  | 0.001 µM, unit not given, with: PGE2 | relative to: DMSO | cAMP level difference | -1.82 |
| C=CC1=C(C)c2cc3[n-]c(cc4nc(cc5[n-]c(cc1n2)c(C)c5C=C)C(C)=C4CCC(=O)O)c(CCC(=O)O)c3C.[Zn+2] | SH-SY5Y | RNA-seq, measured: FOSL1 mRNA |  | 5 µM, 5 h | relative to: untreated cells | fold change | 1.97 |
| CC/C(=C(\c1ccc(O)cc1)c1ccc(OCCN(C)C)cc1)c1ccccc1 | MCF7 3xERE-luc, steroid-deprived | ERE luciferase reporter, agonist |  |  | relative to: vehicle | Emax | 1.1% |
| CCCN1CCN(c2ccc3[nH]c(-c4ccc5[nH]c(-c6cc(OC)c(OC)c(OC)c6)nc5c4)nc3c2)CC1 | SF-539 | SRB |  | 10 µM, 48 h |  | growth percent | 59.6% |
| O=C(/C=C/C=C/C=C/C1CCCCC1)NC1=C[C@@](O)(/C=C/C=C/C=C/C(=O)NC2=C(O)CCC2=O)[C@@H]2O[C@@H]2C1=O | IGR-37 | cell growth, CellTiter-Glo |  | 78 h |  | GI50 | 16.9 µM |
